# Literature values as cited in several papers.
# Each line is one published result; not all experiments were run side by side. pKd: −log10 of the molar value.
Molecule,tested on,test,system,setting,endpoint,result
pegcetacoplan,,,cynomolgus monkey,"subcutaneous, 9 months daily",NOAEL,7 mg/kg/day
CCL5,US28 E13A,"binding, radioligand competition",,,pKd,8.77
enfortumab vedotin,,,mouse ICR SCID,,clearance,1.2 mL/h/kg
melittin,Acinetobacter baumannii,,ATCC 19606,literature value,MIC,< 3.1 µM

# A few entries again:
Molecule,tested on,test,system,setting,endpoint,result
CCL5,US28 E13A,"binding, radioligand competition",,,pKd,8.77
